Results of several laboratories.
Every numbered part comes from another study and shows a few of its results, in no order. Several values in a cell are separate wells, animals, samples, runs or records.

Set 1
Structure (SMILES): CC(C)n1cnc(-c2ccc(F)cc2)c1-c1ncc(C(=O)Nc2ccc(N3CCN(C)CC3)cc2)[nH]1
refers to: prostatic calcification, maximum grade 1; idiopathic pulmonary fibrosis patients; oral, 60 mg once daily — “patients with adverse event”: 0%.
It gave 0% for “patients with adverse event” (Phase 2a trial, refers to: respiratory, thoracic, mediastinal disorders; human, idiopathic pulmonary fibrosis; 60 mg once daily, grade 4).
For refers to: prostatic calcification, maximum grade 4; idiopathic pulmonary fibrosis patients; dose not given, all compound arms pooled: “patients with adverse event” read 0%.
The “patients with adverse event” was 0% (Phase 2a trial, refers to: hepatic steatosis; human, idiopathic pulmonary fibrosis; 30 mg once daily, grade 4).
Phase 2a trial, refers to: hepatobiliary disorders; human, idiopathic pulmonary fibrosis; 30 mg once daily, grade 3 — “patients with adverse event”: 0%.
The “patients with adverse event” was 0% (Phase 2a trial, refers to: hyperuricaemia; human, idiopathic pulmonary fibrosis; 60 mg once daily, grade 3).
It gave 0% for “patients with adverse event” (Phase 2a trial, refers to: blood lactate dehydrogenase increased; human, idiopathic pulmonary fibrosis; all compound arms total, grade 3).
It gave 0% for “patients with adverse event” (Phase 2a trial, refers to: hypercholesterolaemia; human, idiopathic pulmonary fibrosis; 60 mg once daily, grade 5).
It gave 0% for “patients with adverse event” (Phase 2a trial, refers to: eosinophilia myalgia syndrome; human, idiopathic pulmonary fibrosis; all compound arms, grade 2).
refers to: periorbital oedema, grade 4; idiopathic pulmonary fibrosis patients; oral, 60 mg once daily — “patients with adverse event”: 0%.
For Phase 2a trial, refers to: blood pressure increased; human, idiopathic pulmonary fibrosis; 60 mg once daily, grade 4: “patients with adverse event” read 0%.
Phase 2a trial, refers to: hyperuricaemia; human, idiopathic pulmonary fibrosis; all compound arms total, grade 5 — “patients with adverse event”: 0%.
For refers to: abnormal liver function test, grade 4; idiopathic pulmonary fibrosis patients; dose not given, all compound arms pooled: “patients with adverse event” read 0%.
Phase 2a trial, refers to: blood creatinine increased; human, idiopathic pulmonary fibrosis; 60 mg once daily, grade 3 — “patients with adverse event”: 0%.
For Phase 2a trial, refers to: blood pressure increased; human, idiopathic pulmonary fibrosis; 30 mg once daily, grade 2: “patients with adverse event” read 0%.
For Phase 2a trial, refers to: blood urea increased; human, idiopathic pulmonary fibrosis; all compound arms total, grade 4: “patients with adverse event” read 0%.

Set 2 — cell line: mouse MPNST tumor cells; technique: high-content immunofluorescence imaging; refers to: nuclear SOX9; concentration: 10 µM; time: 12 h; setting: mean of 2 replicates; reference: DMSO control; reading: higher = more nuclear SOX9
`CC(C)Nc1cccnc1N1CCN(C(=O)c2cc3cc(NS(C)(=O)=O)ccc3[nH]2)CC1` — result for “nuclear SOX9 intensity”: 107 % of DMSO and 97.4 % of DMSO.
`Cc1ncsc1-c1ccc(CNC(=O)[C@@H]2C[C@H](O)CN2C(=O)[C@@H](NC(=O)C2(C#N)CC2)C(C)(C)C)cc1`: “nuclear SOX9 intensity” 89.7 % of DMSO.
`CCCCC(=O)NCCc1c(Cc2ccccc2)[nH]c2ccccc12`: “nuclear SOX9 intensity” 106 % of DMSO.
For `CN(C)CCCSC(=N)N`, “nuclear SOX9 intensity” read 97.4 % of DMSO.
For `CC(C)NCC(O)c1ccc(O)c(O)c1` (stereo not drawn), “nuclear SOX9 intensity” read 118 % of DMSO.
For `CCCC(=O)Nc1cccc(NC(=O)c2ccccc2Br)c1`, “nuclear SOX9 intensity” read 95.9 % of DMSO.
`CCC(=O)NC[C@H](Cc1ccc(OCCc2nc(-c3ccccc3)oc2C)cc1)N/C(C)=C\C(=O)c1ccc(C(F)(F)F)cc1`: “nuclear SOX9 intensity” 167 % of DMSO.
`Cc1cc(N2CCOCC2)cc2[nH]c(-c3c(NCC(O)c4cccc(Cl)c4)cc[nH]c3=O)nc12` (stereo not drawn): “nuclear SOX9 intensity” 96 % of DMSO.
`O=C(CCCCCCC(=O)Nc1cccnc1)NO`: “nuclear SOX9 intensity” 122 % of DMSO.

Set 3 — observed: enzyme activity; mode: inhibitor; concentration: 0.5 µM; reference: control
Target: Testis-specific serine/threonine-protein kinase 1 (TSSK1B, Homo sapiens, UniProt Q9BXA7)
Construct (Q9BXA7 1-367): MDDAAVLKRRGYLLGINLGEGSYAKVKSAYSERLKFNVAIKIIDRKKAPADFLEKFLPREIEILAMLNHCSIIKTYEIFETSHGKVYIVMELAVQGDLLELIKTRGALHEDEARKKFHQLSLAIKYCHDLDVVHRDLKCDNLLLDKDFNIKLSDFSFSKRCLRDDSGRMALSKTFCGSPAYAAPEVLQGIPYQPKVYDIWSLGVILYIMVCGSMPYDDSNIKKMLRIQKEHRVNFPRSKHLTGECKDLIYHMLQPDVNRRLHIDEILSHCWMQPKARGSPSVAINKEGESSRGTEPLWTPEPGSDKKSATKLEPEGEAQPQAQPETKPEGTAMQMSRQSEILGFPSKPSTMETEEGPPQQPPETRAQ
For `Nc1nccc(-c2c(-c3ccc(F)cc3)ncn2C2CCNCC2)n1`, the remaining activity was 106%.
`Cc1ccc(NC2=CC(=O)c3sc(C)nc3C2=O)cc1` gave a remaining activity of 115%.
For `CC[n+]1c(/C=C/N(C)c2ccccc2)n(-c2ccccc2)c2ccc(-c3nc4ccccc4s3)cc21`, the remaining activity was 102%.
With `NC(=O)c1ccc(N(C(N)=O)c2c(F)cccc2F)nc1-c1ccc(F)cc1F` the remaining activity was 83%.
`CCCC(=O)Oc1ccc2[nH]c(C(=O)c3cc4ccccc4[nH]3)cc2c1` has a remaining activity of 78.1%.
The remaining activity of `Cc1cc(Nc2nc(-c3ccccc3)nc3ccccc23)n[nH]1` is reported as 76.7%.
The remaining activity of `O=S(=O)(NCCNC/C=C/c1ccc(Br)cc1)c1cccc2cnccc12` is reported as 93.5%.
With `CC(C)(C)n1nc(Cc2cccc3ccccc23)c2c(N)ncnc21` the remaining activity was 91.7%.
The remaining activity of `Oc1ccc(Nc2nc(-c3ccc(Cl)cc3)cs2)cc1` is reported as 119%.
`O=C1Cc2c([nH]c3ccc([N+](=O)[O-])cc23)-c2ccccc2N1` gave a remaining activity of 74.7%.
For `CSc1nc(-c2ccnc(N[C@@H](C)c3ccccc3)c2)c(-c2ccc(F)cc2)[nH]1` (racemic), the remaining activity was 73.5%.
With `Nc1nc(Nc2ccc(S(N)(=O)=O)cc2)nn1C(=O)c1c(F)cccc1F` the remaining activity was 85.5%.
`CC#CC(=O)Nc1cc2c(Nc3ccc(F)c(Cl)c3)ncnc2cn1` gave a remaining activity of 104%.
`O=C1NC(=O)C(c2c[nH]c3ccccc23)=C1c1c[nH]c2ccccc12` gave a remaining activity of 106%.
`COc1ccc(S(=O)(=O)N(CCO)c2ccccc2CN(C)CC=Cc2ccc(Cl)cc2)cc1` has a remaining activity of 103%.
The remaining activity of `CCc1[nH]c(-c2ccc(OC)cc2)nc1-c1ccncc1` is reported as 106%.
`Cc1cncc2cccc(S(=O)(=O)N3CCCN(C(=O)CN)C[C@@H]3C)c12` gave a remaining activity of 103%.
For `N#CC(=C(N)Sc1ccc(N)cc1)c1ccccc1C(F)(F)F`, the remaining activity was 103%.
`COc1cc(Nc2c(C#N)cnc3cc(OCCCN4CCN(C)CC4)c(OC)cc23)c(Cl)cc1Cl` has a remaining activity of 79.2%.
The remaining activity of `CC(=O)c1ccc(N2CCOCC2)cc1O` is reported as 107%.
For `Fc1ccc(-c2nc3n(c2-c2ccncc2)CCS3)cc1`, the remaining activity was 119%.
With `Nc1ncnc2c1cnn2-c1ccccc1` the remaining activity was 84.1%.

Other studies, line by line
`Cn1cncc1[C@@](O)(COc1ccc(C#N)cc1-c1ccc(OC(F)(F)F)cc1)c1ccc(C#N)cc1` — result for “total cell count”: 906 and 758 (HEK293T; high-content imaging; 10 µM, 0 h).
